Results from different studies.
Each line is one published result; not all experiments were run side by side.

Under “patients with any TRAE”, CN[C@@H](C)C(=O)N[C@H]1CN(S(=O)(=O)c2cccc(S(=O)(=O)N3CC[C@H]4CC[C@@H](C(=O)NC(c5ccccc5)c5ccccc5)N4C(=O)[C@@H](NC(=O)[C@H](C)NC)C3)c2)CC[C@H]2CC[C@@H](C(=O)NC(c3ccccc3)c3ccccc3)N2C1=O is recorded as 0% (human, advanced solid tumours; intravenous, 4 mg weekly, CTCAE version 4.0).
Cc1cn([C@H]2O[C@@H](CO[P@@](=O)(N[C@@H](C)C(=O)OC(C)C)Oc3ccccc3)[C@H](O)[C@H]2F)c(=O)[nH]c1=O — result for “patients with TEAE”: 0% (measured: Thrombocytosis; human; 50 mg).
Under “patients grade ≥3 Hyponatremia”, Cn1cncc1-c1c(F)cncc1NC(=O)c1c(N)nn2cc(F)cnc12 is recorded as 0% (human patients; oral, 180 mg once daily, 2 weeks on 1 week off).
N[C@@H]1c2ccccc2OC12CCN(c1cnc3c(N4CCCc5ncccc54)n[nH]c3n1)CC2: “patients with adverse event” 30% (measured: dyspnea; human advanced or metastatic solid tumours; oral, dose not given, phase Ia all doses).
For C[C@@H]1OC(=O)NN=C1c1ccc(-c2ccc(F)cc2)c(C(F)(F)F)c1, “patients with adverse event” read 0% (phase I trial, measured: Anaemia worst grade 1; human patients; 5 mg once daily).
For C=CC(=O)Nc1cc(Nc2nccc(Nc3cc(Cl)c(F)cc3C(C)(C)O)n2)c(OC)cc1N1CC[C@@H](N(C)C)C1, “patients with anaemia” read 33.3% (human patients; oral, 50 mg, treatment-emergent adverse events).
Under “patients with subretinal fluid”, O=C1Nc2cc3[nH]nc(-c4ccncc4)c3cc2CN1Cc1ccccc1 is recorded as 0% (CTCAE v4.03; human, relapsed or refractory advanced solid tumours; intravenous, 1.8 mg/kg, pooled schedules).
CN(C)C(=O)c1cc2cnc(Nc3ccc(N4CCNCC4)cn3)nc2n1C1CCCC1: “patients with adverse event” 0% (measured: Infections, AESI; human, HR+/HER2− advanced breast cancer; oral, dose not given, grade 4, CTCAE v4.03).
Under “patients with nausea”, COc1ncnn2ccc(-c3cnc4nc(C)n(Cc5nnc([C@@H](C)F)o5)c4c3)c12 is recorded as 0% (human; oral, dose not given, grade 3).
Cn1nc(NS(C)(=O)=O)c2c(Cl)ccc(-n3c([C@H](Cc4cc(F)cc(F)c4)NC(=O)Cn4nc(C(F)F)c5c4C(F)(F)[C@@H]4C[C@H]54)nc4nc(OCCC(F)(F)F)ccc4c3=O)c21 — result for “patients with laboratory abnormality”: 13% (measured: LDL cholesterol grade 2 increase; human; 300 mg once daily, powder in bottle).
Under “patients with related malignant hypertension”, CNC(=O)c1cc(Oc2ccc(NC(=O)Nc3cc(C(C)(C)C)nn3-c3ccc4ncccc4c3)c(F)c2)ccn1 is recorded as 2% (phase clinical trial; human patients; oral, dose not given, all doses).
C[C@]1(O)C[C@@](N)(c2ccc(-c3nc4n(c3-c3ccccc3)COc3ccncc3-4)cc2)C1: “patients with grade ≥3 Hyperglycemia TEAE” 5.9% (human, advanced or metastatic solid tumours; dose not given, all patients).
Under “patients with serious TEAE”, COc1ccc(-c2c(-c3ccc(C#N)c(F)c3)nc(N3CCC(N)CC3)n(C)c2=O)cc1F is recorded as 5% (measured: respiratory failure; human patients; oral, 60 mg, dose expansion).

Excerpt of the above:
For C[C@@H]1OC(=O)NN=C1c1ccc(-c2ccc(F)cc2)c(C(F)(F)F)c1, “patients with adverse event” read 0% (phase I trial, measured: Anaemia worst grade 1; human patients; 5 mg once daily).
